Measurements pooled from the literature.
Numbered parts are unrelated; each lists some results of a single study.
Chain of UniProt P42681 (whole entry, looked up): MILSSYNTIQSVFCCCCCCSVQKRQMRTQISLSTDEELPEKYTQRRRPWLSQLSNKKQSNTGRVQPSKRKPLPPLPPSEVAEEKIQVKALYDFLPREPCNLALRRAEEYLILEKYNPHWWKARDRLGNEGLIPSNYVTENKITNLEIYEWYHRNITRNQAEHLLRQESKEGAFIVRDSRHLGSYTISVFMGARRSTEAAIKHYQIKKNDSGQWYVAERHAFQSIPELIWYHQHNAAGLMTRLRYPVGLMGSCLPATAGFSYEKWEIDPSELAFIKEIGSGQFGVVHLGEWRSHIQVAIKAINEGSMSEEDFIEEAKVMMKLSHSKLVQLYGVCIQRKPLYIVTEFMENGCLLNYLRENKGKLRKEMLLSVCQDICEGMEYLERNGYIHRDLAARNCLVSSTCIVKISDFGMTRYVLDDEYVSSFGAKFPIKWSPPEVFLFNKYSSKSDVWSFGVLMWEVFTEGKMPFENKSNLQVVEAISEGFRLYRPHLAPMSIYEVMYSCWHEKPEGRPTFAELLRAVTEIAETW

Block 1
Target: RNA binding protein fox-1 homolog 2, RRM domain, GST-SBP tag (RBFOX2, Homo sapiens, UniProt O43251-10, residues 100-194)
Technique: RNA Bind-n-Seq
Form: RNA
Sample: in vitro
Concentration: 365 nM
Notes: natural RNA segment, single round, ends assumed
Baseline: no-protein control
Reading: higher = stronger binding
All sequences stand within: GGGAGUUCUACAGUCCGACGAUC … UGGAAUUCUCGGGUGCCAA
Construct (chain): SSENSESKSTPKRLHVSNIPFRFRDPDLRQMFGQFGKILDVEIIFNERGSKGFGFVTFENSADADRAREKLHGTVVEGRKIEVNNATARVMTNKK
| Oligonucleotide | RBNS enrichment (R) |
| --- | --- |
| AUCCACCCGCCUCAGUCUCCCAAAGUGCUGAGAUUACAGGCAUGAGUCACUACGCCCGGCCCAUGUCUGUCUGUCUUGAUGUGUGAGCAGCAGCUGUGGUCAUUAAACCA | 0.297 |
| CUGUUUUGUUGUUUGAUUCAGCAAAAAUCUCCCAGUGACAACAUCGCAAUAGUUUUUUACUUCUCUUAGGUGGCUCUGGGAAUGGGAGAGGGGUAGGAUGUACAGGGGUA | 1.15 |
| AGUAUGAACAAUGGGCACGGGGUUUUCAGCCACAGUUCCCUCGAGGCCAGUGUUCAGCAGGAUCAUGCCUUCUGUGUCUGGAAGAGGCGGCAGAGGCAACAGUGUUUAGG | 0.423 |
| AGCUGAGAAUUUAAACCUAUUAUUGUUAUAAUGAAAGAAUGACAUUUAUGCUUUGAAAGCUCUCGAGUUGUUAAAGAAAAUGUAUAUCUCGAAUAGAGAAGGGGAAACUC | 0.33 |
| AAAGGGUAGGAGUGCACAUAGGAUAAGACACAUUCCAAAAUCAGGGCCUCCCUGUUUUUUCCUACUCAUCCCUGGCUCCUACAAGGGAAAGUGCAGGCUUUGGGAGCAGG | 0.511 |
| UGUAGACCAUUGACUGACCCCAGUCAAAGAUAGGUCCUAGUGAUAUAAGAACACUAGCCCAAAAGGUCUAUGCAGUAGUUAAGUAGUGCUUUUGCUUAUUAUAGGGUGCU | 0.261 |
| UUCUUAAAGUGACAGUAUCCCUUAACCUGCCACCAGUGUCCACCCUCCGGCCCCCGUCUUGUAAAAAGGGGAGGAGAAUUAGCCAAACACUGUAAGCUUUUAAGAAAAAC | 1.66 |
| AAACACACUGUACAUGUUGUGAACAAGCUUUCAUAGGUUUAUUAUAUUUGAUAUUUUUUUACUCGAGAAAGAACAUCUUUUUCCAUGAACAUCUGCAGCAGUUCACACGG | 0.404 |

Block 2
Target: Prothrombin, mature alpha-thrombin (F2, Homo sapiens, UniProt P00734)
Technique: aptamer microarray, sandwich
Form: DNA with 2'F-ANA
Sample: in vitro
Concentration: 200 nM
Notes: whole 15-mer aptamer, many near background
With: Cy3 exosite-II aptamer, 400 nM
Reading: higher = stronger binding
Oligonucleotide: GGTTGGTGTGGTTGG
| Modification | mean fluorescence intensity [a.u.] |
| --- | --- |
| 2'F-ANA at 3 4 6 7 8 9 10 13 | 250 |
| 2'F-ANA at 1 3 4 5 7 8 11 14 15 | 49.6 |
| 2'F-ANA at 4 5 8 12 | 171 |
| 2'F-ANA at 2 7 9 11 12 | 621 |
| 2'F-ANA at 2 3 6 12 13 15 | 823 |
| 2'F-ANA at 2 3 5 6 11 12 15 | 182 |
| 2'F-ANA at 1 5 9 11 14 15 | 47.4 |
| 2'F-ANA at 1 4 8 9 12 13 14 15 | 66.1 |

Block 3
Target: Centromere-binding protein 1, full length, N-terminal tag (CBF1, Saccharomyces cerevisiae, UniProt P17106, residues 1-351)
Chain of UniProt P17106 (whole entry, looked up): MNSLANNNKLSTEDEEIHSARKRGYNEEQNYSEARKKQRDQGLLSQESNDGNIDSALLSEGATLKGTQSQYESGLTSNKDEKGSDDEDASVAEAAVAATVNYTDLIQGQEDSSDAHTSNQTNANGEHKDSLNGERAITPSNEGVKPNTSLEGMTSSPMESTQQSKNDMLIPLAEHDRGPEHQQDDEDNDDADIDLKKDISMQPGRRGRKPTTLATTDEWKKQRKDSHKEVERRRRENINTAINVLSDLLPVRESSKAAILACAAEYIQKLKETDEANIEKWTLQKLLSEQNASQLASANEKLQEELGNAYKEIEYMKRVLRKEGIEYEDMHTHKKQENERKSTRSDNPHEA
Technique: protein-binding microarray
Form: double-stranded DNA, one strand shown
Sample: in vitro
Concentration: 0.8 µM
Notes: whole 60-bp probe, no competitor
Reading: higher = stronger binding
All sequences stand within: … GTCTTGATTCGCTTGACGCTGCTG
| Oligonucleotide | fluorescence intensity [a.u.] |
| --- | --- |
| GAAAGATTTCATTTTCACGAGGATCGATTTCTATAG | 618 |
| CTAAAAACCGCGCGTCACGAAAAAGCAGGAAGCTTC | 643 |
| GAATGTTCAAAGAATCTCGTGGTTGTTCTGTTTTAG | 657 |
| CTATTTAACTGCACTGACGTCAATACTAACGTATTC | 574 |
| GAAACAGAAAAACTTAGGGTGACGACTTTTTAATAG | 512 |
| GAAGTCAAGATCTGTCATCAGTTGTTTTGCGTGTAG | 521 |
| CTAAGCAGCAGCAACAGCACCACCACCAATGCATTC | 508 |
| GAAATGCACATCAGCCTCGTGACAGATGAGGATTAG | 1330 |

Mixed results
| SMILES | target | assay | setting | scale | quantity | value |
| --- | --- | --- | --- | --- | --- | --- |
| COc1cc2nccc(Oc3ccc(NC(=S)NC(=O)c4ccccc4C)cc3)c2cc1OC | Tyrosine-protein kinase TXK (TXK, Homo sapiens, UniProt P42681) | enzyme activity, inhibitor | 0.5 µM | baseline: control | remaining activity | 66.9% |

A few entries again (block 3):
| Oligonucleotide | fluorescence intensity [a.u.] |
| --- | --- |
| GAAGTCAAGATCTGTCATCAGTTGTTTTGCGTGTAG | 521 |
| CTAAGCAGCAGCAACAGCACCACCACCAATGCATTC | 508 |
